# Measurements collected from several papers.
# Protocols differ between the studies behind these lines.
# UniProt P36896, sequence (whole entry, looked up): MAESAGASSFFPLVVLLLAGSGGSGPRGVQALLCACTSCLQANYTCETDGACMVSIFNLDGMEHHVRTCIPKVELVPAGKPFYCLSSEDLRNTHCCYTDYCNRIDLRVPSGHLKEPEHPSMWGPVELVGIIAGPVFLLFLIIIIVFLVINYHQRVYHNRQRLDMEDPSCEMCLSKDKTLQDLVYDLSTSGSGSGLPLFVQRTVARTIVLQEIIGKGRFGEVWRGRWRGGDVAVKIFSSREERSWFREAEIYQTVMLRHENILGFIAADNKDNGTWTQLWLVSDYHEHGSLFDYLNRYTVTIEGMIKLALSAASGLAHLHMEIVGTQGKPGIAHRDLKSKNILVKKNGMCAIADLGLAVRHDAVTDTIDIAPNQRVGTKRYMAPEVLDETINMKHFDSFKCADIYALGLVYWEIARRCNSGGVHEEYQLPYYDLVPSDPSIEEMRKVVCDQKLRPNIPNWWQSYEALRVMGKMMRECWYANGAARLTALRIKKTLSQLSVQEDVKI
# UniProt P10721, sequence (whole entry, unmodified, looked up): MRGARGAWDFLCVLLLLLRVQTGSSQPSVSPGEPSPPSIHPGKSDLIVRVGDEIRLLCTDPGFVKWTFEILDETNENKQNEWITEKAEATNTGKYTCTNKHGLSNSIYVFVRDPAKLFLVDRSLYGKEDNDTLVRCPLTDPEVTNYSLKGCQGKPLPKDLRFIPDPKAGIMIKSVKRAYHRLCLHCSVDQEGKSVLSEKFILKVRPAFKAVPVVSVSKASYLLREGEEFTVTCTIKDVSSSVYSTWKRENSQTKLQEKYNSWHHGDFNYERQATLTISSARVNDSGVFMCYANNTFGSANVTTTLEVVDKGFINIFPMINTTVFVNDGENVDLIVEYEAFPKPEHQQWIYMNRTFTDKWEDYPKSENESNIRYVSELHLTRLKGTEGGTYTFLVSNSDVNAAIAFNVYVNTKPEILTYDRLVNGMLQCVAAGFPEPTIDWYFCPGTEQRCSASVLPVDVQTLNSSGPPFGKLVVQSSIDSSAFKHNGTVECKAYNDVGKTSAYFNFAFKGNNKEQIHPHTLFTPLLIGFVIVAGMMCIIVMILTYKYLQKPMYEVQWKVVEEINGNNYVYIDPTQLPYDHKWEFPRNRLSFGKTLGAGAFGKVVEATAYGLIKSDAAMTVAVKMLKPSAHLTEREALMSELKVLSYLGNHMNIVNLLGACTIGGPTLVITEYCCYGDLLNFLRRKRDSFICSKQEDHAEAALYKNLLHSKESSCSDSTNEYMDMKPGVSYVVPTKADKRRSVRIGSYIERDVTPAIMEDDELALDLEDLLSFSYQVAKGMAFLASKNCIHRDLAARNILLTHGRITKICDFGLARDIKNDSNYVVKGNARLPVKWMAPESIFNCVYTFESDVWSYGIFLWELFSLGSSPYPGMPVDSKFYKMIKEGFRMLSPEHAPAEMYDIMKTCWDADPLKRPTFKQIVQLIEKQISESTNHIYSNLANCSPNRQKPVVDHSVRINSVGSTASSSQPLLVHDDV
# UniProt Q13153, sequence (whole entry, looked up): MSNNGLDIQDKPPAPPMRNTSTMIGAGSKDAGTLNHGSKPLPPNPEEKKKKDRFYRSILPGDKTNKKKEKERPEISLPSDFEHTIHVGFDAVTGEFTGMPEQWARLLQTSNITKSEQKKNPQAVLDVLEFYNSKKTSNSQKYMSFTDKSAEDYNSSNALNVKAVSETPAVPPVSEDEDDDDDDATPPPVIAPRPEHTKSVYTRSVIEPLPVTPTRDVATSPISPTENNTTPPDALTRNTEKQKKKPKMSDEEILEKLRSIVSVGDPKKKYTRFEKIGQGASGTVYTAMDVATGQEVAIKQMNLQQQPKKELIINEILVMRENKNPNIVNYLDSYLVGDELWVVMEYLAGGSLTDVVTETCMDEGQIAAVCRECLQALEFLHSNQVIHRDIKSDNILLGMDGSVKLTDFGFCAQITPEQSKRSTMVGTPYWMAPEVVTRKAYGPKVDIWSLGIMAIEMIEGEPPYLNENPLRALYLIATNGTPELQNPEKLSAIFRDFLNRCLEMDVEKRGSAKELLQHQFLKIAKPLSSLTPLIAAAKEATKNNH
SMILES,target or system,assay,setting,quantity,value
OCc1ccc(-c2nn(Cc3ccccc3Cl)c3ccccc23)o1,RBE,"cell growth or viability, ATP luminescence","46 µM, 72 h",inhibition,63%
COc1ccccc1CNC[C@@](C)(O)[C@@H]1CC[C@@H](C)C[C@H]1OCc1ccccc1,HeLa,"cell growth or viability, MTT","30 µM, 72 h",inhibition,82.4%
Cn1nc(-c2ccc(CO)o2)c2ccccc21,RBE,"cell growth or viability, ATP luminescence","46 µM, 72 h",inhibition,56%
CC1(C)C[C@H]2[C@H]1CC[C@]1(C)CCC[C@@]2(NS(C)(=O)=O)C1,HT-29,"cell growth or viability, CCK-8",50 µM,inhibition,79.8%
CC(=NNC(=O)c1cccnc1)c1ccc(Nc2nnc(-c3ccc(Cl)cc3)c3ccccc23)cc1,MCF7,"cell growth or viability, MTT",0.312 µM,cell death,0%
C[C@@H]1CC[C@@H]([C@](O)(CNCc2ccccc2)COCc2ccc(F)cc2)[C@H](OCc2ccc(F)cc2)C1,HeLa,"cell growth or viability, MTT","30 µM, 72 h",inhibition,98.8%
OCc1ccc(-c2n[nH]c3ccccc23)o1,RBE,"cell growth or viability, ATP luminescence","46 µM, 72 h",inhibition,62%
C[C@@H]1CC[C@@H]([C@@](C)(O)Cn2cnc3ccccc32)[C@H](OCc2ccccc2)C1,HeLa,"cell growth or viability, MTT","10 µM, 72 h",inhibition,61.6%
Cc1cc(=O)oc2ccc(-c3cc(-c4ccc(Br)cc4)nc(N)n3)c(O)c12,KB,"cell growth or viability, MTT","128 µg/mL, 72 h",inhibition,23%
COc1ccc(CNC[C@](O)(COCc2ccc(F)cc2)[C@@H]2CC[C@@H](C)C[C@H]2OCc2ccc(F)cc2)cc1,HeLa,"cell growth or viability, MTT","30 µM, 72 h",inhibition,95.5%
CCN(Cc1cccnc1)c1ccc(CO)c(Cl)c1,RBE,"cell growth or viability, ATP luminescence","46 µM, 72 h",inhibition,54%
C[C@@H]1CC[C@@H]([C@](C)(O)Cn2ccnc2)[C@H](OCc2ccccc2)C1,HeLa,"cell growth or viability, MTT","30 µM, 72 h",inhibition,59.7%
Cc1ccc(-c2cc(-c3ccc4oc(=O)cc(C)c4c3O)nc(N)n2)cc1,KB,"cell growth or viability, MTT","128 µg/mL, 72 h",inhibition,25%
COc1cccc(CNC[C@@](C)(O)[C@@H]2CC[C@@H](C)C[C@H]2OCc2ccccc2)c1,A2780,"cell growth or viability, MTT","30 µM, 72 h",inhibition,95.3%
O=C(c1ccccc1)n1nc(-c2ccc(CO)o2)c2ccccc21,RBE,"cell growth or viability, ATP luminescence","46 µM, 72 h",inhibition,58%
Cc1cc(Nc2ncc(Cl)c(Nc3ccccc3S(=O)(=O)C(C)C)n2)c(OC(C)C)cc1C1CCNCC1,KARPAS-299,"cell growth or viability, MTT","1.66667 µg/mL, 72 h",inhibition,76.4%
C=CC(=O)N1CCC(COCC(=O)N2CCN(c3nc(-c4cnc(N)nc4C(F)F)nc(N4CCOC[C@@H]4C)n3)CC2)CC1,"KIT (Homo sapiens, UniProt P10721, D816V)","binding, competition with immobilised ligand",1 µM,remaining binding,90%
CCN(O)N=Nc1ccc(S(=O)(=O)Nc2cc(C)on2)cc1,,ABTS scavenging,20 µg/mL,inhibition,6.42%
COc1cc(-c2cncc3c2CN(C)Cc2cc(N4CCNCC4)ccc2-3)cc(OC)c1OC,"ACVR1B (Homo sapiens, UniProt P36896)","enzyme activity, inhibitor",1 µM,remaining activity,32%
Cc1cc(=O)oc2ccc(-c3cc(-c4cccs4)nc(N)n3)c(O)c12,KB,"cell growth or viability, MTT","8 µg/mL, 72 h",inhibition,0%
C[C@@H]1CC[C@@H]([C@@](O)(CNCc2ccccc2)COCc2ccccc2)[C@H](OCc2ccccc2)C1,A2780,"cell growth or viability, MTT","30 µM, 72 h",inhibition,99.1%
OCc1cccc(-c2nn(Cc3ccccc3)c3ccccc23)c1,RBE,"cell growth or viability, ATP luminescence","46 µM, 72 h",inhibition,28%
C[C@@H](Oc1cc(-c2cnn(C3CCNCC3)c2)cnc1N)c1c(Cl)ccc(F)c1Cl,NCI-H3122,"cell growth or viability, MTT","0.0016 µg/mL, 72 h",inhibition,12.7%
Cc1cc(=O)oc2ccc(-c3cc(-c4ccccc4)nc(N)n3)c(O)c12,KB,"cell growth or viability, MTT","32 µg/mL, 72 h",inhibition,9%
CCCN(O)N=Nc1ccc(S(=O)(=O)Nc2nccs2)cc1,,ABTS scavenging,60 µg/mL,inhibition,38.4%
CC1(C)C[C@H]2[C@H]1CC[C@]1(C)CCC[C@@]2(n2cc(C(=O)Nc3ccc(Cl)cc3)nn2)C1,HT-29,"cell growth or viability, CCK-8",10 µM,inhibition,< 50%
Cc1cc(=O)oc2ccc(-c3cc(-c4cccc([N+](=O)[O-])c4)nc(N)n3)c(O)c12,KB,"cell growth or viability, MTT","8 µg/mL, 72 h",inhibition,20.5%
CC1(C)C[C@H]2[C@H]1CC[C@]1(C)CCC[C@@]2(n2cc(CNC(N)=O)nn2)C1,HT-29,"cell growth or viability, CCK-8",50 µM,inhibition,93.8%
CCC(=CCc1c(O)cc2c(c1O)C(=O)CC(c1ccc(O)cc1)O2)CC (stereo in doubt),HeLa,"cell growth or viability, MTT","100 µM, 48 h",inhibition,99.8%
Cc1cc(=O)oc2ccc(-c3cc(-c4cccc(Cl)c4)nc(N)n3)c(O)c12,KB,"cell growth or viability, MTT","128 µg/mL, 72 h",inhibition,26%
Cc1nc(Nc2ncc(C(=O)Nc3c(C)cccc3Cl)s2)cc(N2CC[C@H](O)C2)n1,MOLT-4,"cell growth or viability, ATP luminescence","10 µM, 72 h",inhibition,37%
CN(C)C(=O)c1cn([C@@]23CCC[C@@](C)(CC[C@@H]4[C@@H]2CC4(C)C)C3)nn1,HT-29,"cell growth or viability, CCK-8",50 µM,inhibition,45.8%
COc1ccc(-c2cc(-c3ccc4oc(=O)cc(C)c4c3O)nc(N)n2)cc1,KB,"cell growth or viability, MTT","32 µg/mL, 72 h",inhibition,11%
OCc1ccc(N2CCc3cccc(F)c3C2)cc1Cl,RBE,"cell growth or viability, ATP luminescence","46 µM, 72 h",inhibition,87%
C=C(C)[C@@H]1CC[C@@H](C)C[C@H]1OCc1ccc(OC)cc1,A2780,"cell growth or viability, MTT","30 µM, 72 h",inhibition,28.4%
CNc1ncc2c(/C=C/C(=O)N3CCC(OC)CC3)nn(Cc3cccc(C(F)(F)F)c3)c2n1,"PAK1 (Homo sapiens, UniProt Q13153)","enzyme activity, inhibitor, radiometric",1 µM,remaining activity,103%
COc1ccc(-c2cn([C@@]34CCC[C@@](C)(CC[C@@H]5[C@@H]3CC5(C)C)C4)nn2)cc1,HT-29,"cell growth or viability, CCK-8",10 µM,inhibition,< 50%
OCc1ccc(-c2nn(Cc3ccccc3)c3c2CCCC3)o1,RBE,"cell growth or viability, ATP luminescence","46 µM, 72 h",inhibition,62%
CCC(=CCc1c(O)cc2c(c1O)C(=O)C[C@H](c1ccccc1O)O2)CC,HeLa,"cell growth or viability, MTT","3.75 µM, 48 h",inhibition,3.88%

# A few entries again:
SMILES,target or system,assay,setting,quantity,value
C[C@@H]1CC[C@@H]([C@@](O)(CNCc2ccccc2)COCc2ccccc2)[C@H](OCc2ccccc2)C1,A2780,"cell growth or viability, MTT","30 µM, 72 h",inhibition,99.1%
OCc1cccc(-c2nn(Cc3ccccc3)c3ccccc23)c1,RBE,"cell growth or viability, ATP luminescence","46 µM, 72 h",inhibition,28%
